# Published values of several laboratories.
# Parts stem from different laboratories: compare values within a part only.
# UniProt Q96NX5, sequence (whole entry, looked up): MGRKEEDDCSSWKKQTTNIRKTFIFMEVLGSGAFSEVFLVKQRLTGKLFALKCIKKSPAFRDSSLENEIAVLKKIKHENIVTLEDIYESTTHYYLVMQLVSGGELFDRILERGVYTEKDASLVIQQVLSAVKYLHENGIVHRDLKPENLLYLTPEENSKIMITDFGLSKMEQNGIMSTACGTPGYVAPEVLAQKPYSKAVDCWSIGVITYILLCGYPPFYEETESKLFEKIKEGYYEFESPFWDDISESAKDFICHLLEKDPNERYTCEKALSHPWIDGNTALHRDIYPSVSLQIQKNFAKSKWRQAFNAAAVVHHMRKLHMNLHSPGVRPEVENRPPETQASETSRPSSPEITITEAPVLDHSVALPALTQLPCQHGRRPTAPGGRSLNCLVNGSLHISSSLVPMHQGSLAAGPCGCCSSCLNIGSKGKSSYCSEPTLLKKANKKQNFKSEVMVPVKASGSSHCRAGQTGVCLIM

# Block 1 — method: RNA Bind-n-Seq; molecule type: RNA; medium: in vitro; tested at: 365 nM; reference: no-protein control; reading: higher = stronger binding
# Target: RNA binding protein fox-1 homolog 2, RRM domain, GST-SBP tag (RBFOX2, Homo sapiens, UniProt O43251-10, residues 100-194)
# Setting: natural RNA segment, single round, ends assumed
# Residues (chain): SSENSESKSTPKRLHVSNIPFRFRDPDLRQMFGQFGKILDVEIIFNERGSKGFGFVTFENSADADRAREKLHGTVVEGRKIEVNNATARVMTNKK
Sequence,RBNS enrichment (R)
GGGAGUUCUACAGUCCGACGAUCACACAAGGGCCUUGGCUUUGUUGAGACAGAGCCUGUGCUGGCACUUGCUGUUAGGGUAGGAAGAGGCACAAAGAGGACCCCGGUAGCGGUGAUCUGUGGCCUUCUGUGGGUGGAAUUCUCGGGUGCCAA,0.319
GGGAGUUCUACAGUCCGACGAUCUCUUAGUGAAGUCCUUUGUUGGGCUAUGGGCUAGCAUGUGGCUCACUGCUGUAAUGCUAGUAUUUCAAAGUCUGAAGCAGGAGGACUCCCAUGAGGUUGAGGUUACCCUGUGGAAUUCUCGGGUGCCAA,0.454
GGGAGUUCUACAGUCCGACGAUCAACAUUUAAACCUGGAGACUCUUCGUGUCUUGAAUUAGGAUGUUUGUCCAGUAAUAAAAUAUAGAACCUUUCAAAAUGCUUUUCUGGUUUAUAAAGUACUGAAUUGCCCUUGGAAUUCUCGGGUGCCAA,0.629
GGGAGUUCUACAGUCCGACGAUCGGAUGCAACAUGGGGUCCCAAUGCCUGAGGAGAAGACCCCCCCCCAAGGCUGACUCGCUUUCACCAGGGCCACCAGGGCCAUCCAGUGUUGUUUAAUUACAGUCGGAAAGUGGAAUUCUCGGGUGCCAA,0.391
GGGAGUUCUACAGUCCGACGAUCCUGUUAUUUAUGGUGUGACCCCCUGGAGGUGCCCUCGGCCCACCGGGGCUAUUUAUUGUUUAAUUUAUUUGUUGAGGUUAUUUCCUCUGAGCAGUCUGCCUCUCCCAAGCUGGAAUUCUCGGGUGCCAA,0.333
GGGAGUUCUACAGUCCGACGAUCCACACAUUCCUUUGAAAUAAGGUUUCAAUAUACAUCUACAUACUAUAUAUAUAUUUGGCAACUUGUAUUUGUGUGUAUAUAUAUAUAUAUAUGUUUAUGUAUAUAUGUGAUGGAAUUCUCGGGUGCCAA,0.871
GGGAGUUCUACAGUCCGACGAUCAUCCAGGAAUUUUAAACUAAAGCAAUGAGUUGUCUGUCACCUUGCCCUGGAACUCCAGCGUAACCUGCCUUAGUGUUCCUUGUGUUGUCUGCUUUGAUGUAAAACCACAGUGGAAUUCUCGGGUGCCAA,0.222
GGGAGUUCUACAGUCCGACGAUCUCCUGCGACUGCAGGCACUGGUCAUUUUCUCAUGUAGCUGUCUUUUCAGUUAUGGUAAACUCUUAAAGUUCAGAACACUCAACAGAUUCCUUCAGUGAUAUACUUGUUCGUGGAAUUCUCGGGUGCCAA,0.38

# Block 2 — method: RNAcompete; molecule type: RNA; medium: in vitro; tested at: 20 nM; setting: 7-mer, probes averaged, single round; reference: mean of 7-mers; reading: higher = stronger binding
# Target: PABPC1L2, full length, GST fusion (mouse, UniProt A0ABA7IW68)
# Residues (chain): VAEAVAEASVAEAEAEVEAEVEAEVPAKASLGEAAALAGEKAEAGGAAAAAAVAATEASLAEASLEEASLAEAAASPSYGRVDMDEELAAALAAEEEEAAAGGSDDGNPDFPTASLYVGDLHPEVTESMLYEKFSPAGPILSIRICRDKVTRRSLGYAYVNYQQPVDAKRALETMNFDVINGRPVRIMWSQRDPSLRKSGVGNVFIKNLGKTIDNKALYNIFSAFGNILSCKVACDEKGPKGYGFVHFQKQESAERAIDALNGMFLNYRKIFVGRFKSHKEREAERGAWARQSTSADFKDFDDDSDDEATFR
Sequence,7-mer Z-score
GCUGUAA,-0.0917
CGGCGUC,-0.229
GAACGAC,0.00617
GAUUAUA,-0.117
AUGAAUC,-0.195
AACCAAU,0.274
UGCGCAC,-0.151
GAGGUUU,-0.369

# Block 3 — method: protein-binding microarray; molecule type: hairpin DNA; medium: in vitro; tested at: not given; reference: not given; reading: higher = stronger binding
# Target: Cellular tumor antigen p53, full length (TP53, Homo sapiens, UniProt P04637, residues 1-393)
# Setting: whole hairpin DNA, median over replicate spots
Sequence,median fluorescence [a.u.]
CGGACATGCTCGGGCATGTCTCCTGACATGCCCGAGCATGTCCGACACTC,16300
CCACACGTCGTGGCATGCCTTCCTAGGCATGCCACGACGTGTGGACACTC (5mC at 9 35),7640
CGGACATGGCCGGGCATGTCTCCTGACATGCCCGGCCATGTCCGACACTC,15300
CCACCGGTGGTGGCATGCCTTCCTAGGCATGCCACCACCGGTGGACACTC (5mC at 5 39),6380
CGGACGTGCCCGGGCATGTCTCCTGACATGCCCGGGCACGTCCGACACTC (5mC at 5),15100
CCATACGTGGTGGCATGCCTTCCTAGGCATGCCACCACGTATGGACACTC,8270
CCACACGTAGTGGCATGCCTTCCTAGGCATGCCACTACGTGTGGACACTC,7760
CGGACATGCCCGCGCATGTCTCCTGACATGCGCGGGCATGTCCGACACTC (5mC at 31),12100

# Other studies, line by line
SMILES,target,read-out,mode,tested at,reference,quantity,value
CN(C)CCCn1cc(C2=C(c3c[nH]c4ccccc34)C(=O)NC2=O)c2ccccc21,"Calcium/calmodulin-dependent protein kinase type 1G (CAMK1G, Homo sapiens, UniProt Q96NX5)",enzyme activity,inhibitor,0.5 µM,control,remaining activity,97.4%

# Some of these lines once more (block 1):
Sequence,RBNS enrichment (R)
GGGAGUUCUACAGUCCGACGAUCUCUUAGUGAAGUCCUUUGUUGGGCUAUGGGCUAGCAUGUGGCUCACUGCUGUAAUGCUAGUAUUUCAAAGUCUGAAGCAGGAGGACUCCCAUGAGGUUGAGGUUACCCUGUGGAAUUCUCGGGUGCCAA,0.454
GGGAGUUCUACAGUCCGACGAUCUCCUGCGACUGCAGGCACUGGUCAUUUUCUCAUGUAGCUGUCUUUUCAGUUAUGGUAAACUCUUAAAGUUCAGAACACUCAACAGAUUCCUUCAGUGAUAUACUUGUUCGUGGAAUUCUCGGGUGCCAA,0.38
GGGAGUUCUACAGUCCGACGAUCACACAAGGGCCUUGGCUUUGUUGAGACAGAGCCUGUGCUGGCACUUGCUGUUAGGGUAGGAAGAGGCACAAAGAGGACCCCGGUAGCGGUGAUCUGUGGCCUUCUGUGGGUGGAAUUCUCGGGUGCCAA,0.319
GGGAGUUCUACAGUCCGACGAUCAACAUUUAAACCUGGAGACUCUUCGUGUCUUGAAUUAGGAUGUUUGUCCAGUAAUAAAAUAUAGAACCUUUCAAAAUGCUUUUCUGGUUUAUAAAGUACUGAAUUGCCCUUGGAAUUCUCGGGUGCCAA,0.629
